Assay results of several laboratories.
Compare with care: the assays were run in different laboratories. ± gives the spread as reported.
CNR1: Cannabinoid receptor 1 (CNR1, Homo sapiens, UniProt P21554)
Chain of UniProt P21554 (whole entry, looked up): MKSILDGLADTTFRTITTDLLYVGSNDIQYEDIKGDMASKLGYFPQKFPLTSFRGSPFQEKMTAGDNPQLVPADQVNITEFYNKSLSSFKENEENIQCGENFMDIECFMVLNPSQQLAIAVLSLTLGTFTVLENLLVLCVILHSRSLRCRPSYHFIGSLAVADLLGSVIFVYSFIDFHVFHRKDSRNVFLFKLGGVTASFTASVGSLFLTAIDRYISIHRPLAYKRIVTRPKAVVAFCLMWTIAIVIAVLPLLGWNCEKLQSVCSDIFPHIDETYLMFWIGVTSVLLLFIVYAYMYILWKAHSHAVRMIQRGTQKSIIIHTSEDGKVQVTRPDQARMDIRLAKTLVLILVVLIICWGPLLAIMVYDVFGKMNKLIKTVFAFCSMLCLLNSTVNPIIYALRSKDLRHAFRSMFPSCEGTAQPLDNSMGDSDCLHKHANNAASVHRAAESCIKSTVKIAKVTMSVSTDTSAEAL
DRD4: D(4) dopamine receptor (DRD4, Homo sapiens, UniProt P21917)
Chain of UniProt P21917 (whole entry, looked up): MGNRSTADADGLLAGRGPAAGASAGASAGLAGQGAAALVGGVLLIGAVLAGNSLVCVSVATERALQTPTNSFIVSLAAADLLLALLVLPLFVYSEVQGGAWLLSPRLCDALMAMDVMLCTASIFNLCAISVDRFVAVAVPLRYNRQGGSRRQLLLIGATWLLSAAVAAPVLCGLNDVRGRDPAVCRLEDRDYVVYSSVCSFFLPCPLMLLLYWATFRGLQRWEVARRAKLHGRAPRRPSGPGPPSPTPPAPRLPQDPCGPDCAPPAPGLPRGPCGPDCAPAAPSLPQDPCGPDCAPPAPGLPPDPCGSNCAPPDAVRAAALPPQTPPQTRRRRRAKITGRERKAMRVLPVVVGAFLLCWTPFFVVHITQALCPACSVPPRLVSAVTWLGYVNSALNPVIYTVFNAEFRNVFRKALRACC
LCK/CRBN: LCK/CRBN (Homo sapiens, UniProt P06239+Q96SW2)
Chain of UniProt P06239 (whole entry, looked up): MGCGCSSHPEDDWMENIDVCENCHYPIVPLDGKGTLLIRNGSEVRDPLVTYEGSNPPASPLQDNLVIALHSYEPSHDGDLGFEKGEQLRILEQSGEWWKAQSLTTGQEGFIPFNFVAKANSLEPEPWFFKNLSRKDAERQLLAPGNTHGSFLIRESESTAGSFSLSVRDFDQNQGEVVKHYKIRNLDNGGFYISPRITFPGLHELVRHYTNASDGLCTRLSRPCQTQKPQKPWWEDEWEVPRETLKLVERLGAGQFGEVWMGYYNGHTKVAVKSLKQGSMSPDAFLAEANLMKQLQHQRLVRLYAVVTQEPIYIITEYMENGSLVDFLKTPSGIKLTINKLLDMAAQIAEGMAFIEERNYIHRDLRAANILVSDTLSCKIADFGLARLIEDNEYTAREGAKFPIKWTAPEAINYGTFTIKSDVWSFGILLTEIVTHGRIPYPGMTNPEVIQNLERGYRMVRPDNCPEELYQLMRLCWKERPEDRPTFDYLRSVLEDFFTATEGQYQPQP
Chain of UniProt Q96SW2 (whole entry, looked up): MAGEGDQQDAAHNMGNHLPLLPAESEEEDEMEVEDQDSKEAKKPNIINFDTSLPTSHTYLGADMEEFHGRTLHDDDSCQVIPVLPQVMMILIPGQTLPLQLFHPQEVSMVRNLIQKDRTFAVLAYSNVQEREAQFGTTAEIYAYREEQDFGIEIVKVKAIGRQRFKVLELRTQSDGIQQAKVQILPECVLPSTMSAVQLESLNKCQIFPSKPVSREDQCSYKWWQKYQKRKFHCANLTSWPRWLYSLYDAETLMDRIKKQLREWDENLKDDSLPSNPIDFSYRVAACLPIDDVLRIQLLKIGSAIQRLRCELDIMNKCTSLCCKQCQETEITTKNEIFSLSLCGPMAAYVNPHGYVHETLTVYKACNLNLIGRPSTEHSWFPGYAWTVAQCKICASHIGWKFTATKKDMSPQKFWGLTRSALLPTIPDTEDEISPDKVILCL
GSPT1: Eukaryotic peptide chain release factor GTP-binding subunit ERF3A (GSPT1, Homo sapiens, UniProt P15170)
Chain of UniProt P15170 (whole entry, looked up): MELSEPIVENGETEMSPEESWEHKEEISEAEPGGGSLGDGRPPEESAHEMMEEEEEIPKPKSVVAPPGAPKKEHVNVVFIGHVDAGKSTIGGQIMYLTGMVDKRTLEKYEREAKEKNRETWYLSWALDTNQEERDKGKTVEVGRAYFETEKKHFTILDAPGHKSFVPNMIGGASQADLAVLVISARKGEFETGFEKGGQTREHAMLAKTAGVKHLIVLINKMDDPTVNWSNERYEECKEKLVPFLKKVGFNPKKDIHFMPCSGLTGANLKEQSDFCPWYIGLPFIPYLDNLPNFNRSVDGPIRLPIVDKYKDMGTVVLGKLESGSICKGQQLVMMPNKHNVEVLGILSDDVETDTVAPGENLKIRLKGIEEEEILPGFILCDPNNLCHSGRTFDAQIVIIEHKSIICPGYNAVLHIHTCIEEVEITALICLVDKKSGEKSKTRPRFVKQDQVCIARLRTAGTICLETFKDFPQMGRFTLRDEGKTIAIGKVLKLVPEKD
Chain of UniProt P62942 (whole entry, unmodified, looked up): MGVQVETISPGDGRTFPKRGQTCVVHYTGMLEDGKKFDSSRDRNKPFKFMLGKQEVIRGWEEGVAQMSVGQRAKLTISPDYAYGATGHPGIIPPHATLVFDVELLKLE
Chain of UniProt P35348 (whole entry, looked up): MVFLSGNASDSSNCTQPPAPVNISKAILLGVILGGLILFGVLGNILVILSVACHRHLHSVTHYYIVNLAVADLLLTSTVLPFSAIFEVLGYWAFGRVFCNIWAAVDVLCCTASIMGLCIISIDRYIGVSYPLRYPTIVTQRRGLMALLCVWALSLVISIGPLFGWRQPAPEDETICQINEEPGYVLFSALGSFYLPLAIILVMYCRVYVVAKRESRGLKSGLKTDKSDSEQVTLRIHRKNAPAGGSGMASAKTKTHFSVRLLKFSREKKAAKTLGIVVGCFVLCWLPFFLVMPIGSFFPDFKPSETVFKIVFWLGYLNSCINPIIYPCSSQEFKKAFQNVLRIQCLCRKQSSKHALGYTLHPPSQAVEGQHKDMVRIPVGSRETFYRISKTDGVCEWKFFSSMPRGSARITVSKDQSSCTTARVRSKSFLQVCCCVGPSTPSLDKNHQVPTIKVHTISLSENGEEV
Chain of UniProt Q9NYA1 (whole entry, looked up): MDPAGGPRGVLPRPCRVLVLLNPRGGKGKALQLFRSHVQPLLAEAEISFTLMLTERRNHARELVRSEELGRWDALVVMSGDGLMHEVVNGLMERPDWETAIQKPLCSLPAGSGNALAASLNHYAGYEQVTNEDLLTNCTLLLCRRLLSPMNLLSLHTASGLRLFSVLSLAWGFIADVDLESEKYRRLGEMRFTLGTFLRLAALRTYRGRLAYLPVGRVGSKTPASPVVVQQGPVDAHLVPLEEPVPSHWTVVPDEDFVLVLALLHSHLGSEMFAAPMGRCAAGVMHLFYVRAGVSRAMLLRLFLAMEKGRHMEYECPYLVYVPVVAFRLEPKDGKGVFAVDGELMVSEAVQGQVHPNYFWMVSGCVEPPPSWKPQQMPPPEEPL
Chain of UniProt P31749 (whole entry, looked up): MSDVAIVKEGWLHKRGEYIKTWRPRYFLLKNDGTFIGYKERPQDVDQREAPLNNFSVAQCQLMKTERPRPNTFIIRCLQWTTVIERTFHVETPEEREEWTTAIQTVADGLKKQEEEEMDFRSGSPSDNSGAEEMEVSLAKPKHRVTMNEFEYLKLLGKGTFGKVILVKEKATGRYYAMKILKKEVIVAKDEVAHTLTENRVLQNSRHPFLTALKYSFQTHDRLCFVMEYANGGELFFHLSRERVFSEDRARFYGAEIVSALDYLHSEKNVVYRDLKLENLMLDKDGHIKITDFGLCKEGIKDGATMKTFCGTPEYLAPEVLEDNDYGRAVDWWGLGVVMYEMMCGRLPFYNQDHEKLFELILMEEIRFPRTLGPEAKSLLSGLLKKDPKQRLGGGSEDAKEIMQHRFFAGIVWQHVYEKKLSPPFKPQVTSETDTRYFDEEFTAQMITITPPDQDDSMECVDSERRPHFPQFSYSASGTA
Chain of UniProt P29597 (whole entry, looked up): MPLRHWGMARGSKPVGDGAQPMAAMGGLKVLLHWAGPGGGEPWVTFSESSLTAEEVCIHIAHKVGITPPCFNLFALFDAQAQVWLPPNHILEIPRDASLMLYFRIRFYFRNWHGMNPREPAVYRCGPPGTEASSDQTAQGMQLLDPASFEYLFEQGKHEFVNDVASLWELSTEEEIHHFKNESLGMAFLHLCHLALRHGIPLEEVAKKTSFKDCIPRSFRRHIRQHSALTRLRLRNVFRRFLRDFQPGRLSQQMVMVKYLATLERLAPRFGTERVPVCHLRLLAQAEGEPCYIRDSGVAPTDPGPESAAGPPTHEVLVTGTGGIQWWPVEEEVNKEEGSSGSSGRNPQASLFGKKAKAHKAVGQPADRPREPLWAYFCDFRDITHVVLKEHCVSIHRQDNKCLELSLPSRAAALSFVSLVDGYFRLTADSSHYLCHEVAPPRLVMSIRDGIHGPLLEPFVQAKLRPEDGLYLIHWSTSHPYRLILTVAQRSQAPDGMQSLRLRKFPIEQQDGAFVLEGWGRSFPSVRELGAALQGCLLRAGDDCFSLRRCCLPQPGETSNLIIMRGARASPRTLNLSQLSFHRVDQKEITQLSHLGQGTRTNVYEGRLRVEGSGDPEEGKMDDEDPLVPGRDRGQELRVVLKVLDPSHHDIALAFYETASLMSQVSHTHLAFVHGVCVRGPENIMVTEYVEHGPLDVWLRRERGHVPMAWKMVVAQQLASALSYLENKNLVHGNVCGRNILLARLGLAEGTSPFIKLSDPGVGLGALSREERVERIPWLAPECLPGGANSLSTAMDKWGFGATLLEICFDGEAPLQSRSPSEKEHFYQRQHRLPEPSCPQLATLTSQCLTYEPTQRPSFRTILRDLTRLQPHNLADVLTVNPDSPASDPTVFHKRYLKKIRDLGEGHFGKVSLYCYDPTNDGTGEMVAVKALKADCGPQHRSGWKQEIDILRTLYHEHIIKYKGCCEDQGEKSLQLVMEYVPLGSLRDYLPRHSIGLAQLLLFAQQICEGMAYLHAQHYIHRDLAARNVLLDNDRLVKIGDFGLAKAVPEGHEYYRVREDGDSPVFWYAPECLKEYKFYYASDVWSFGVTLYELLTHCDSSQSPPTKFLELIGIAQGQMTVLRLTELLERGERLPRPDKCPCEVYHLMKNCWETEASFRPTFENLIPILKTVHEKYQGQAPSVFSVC

SMILES	target	test	test system	conditions	endpoint	value
CCOC(=O)C(CC)(CCCSCCOCCOCCOCCNc1ccc([N+](=O)[O-])c2nonc12)NC(=O)c1ccc(C2CC2)c(Cc2ccc(F)cc2)n1 (stereo not drawn)	CNR1	ligand displacement, radioligand		cell membranes	Ki	460 nM
CCc1nc2cc3ccccc3cc2cc1C(=O)N[C@@H](CCCCN)C(=O)N[C@@H](C/C=C\C[C@H](NC(=O)[C@H](CCCCN)NC(=O)c1cc2cc3ccccc3cc2nc1CC)C(=O)N1CCC[C@H]1C(=O)NCCCN)C(=O)N1CCC[C@H]1C(=O)NCCCN	(CUG)10 RNA	SPR			Kd	175 nM
COc1ccc(CN2CC(COc3ccc(F)c(C)c3)CC(F)(F)C2)cc1F (stereo not drawn)	DRD4	binding, radioligand displacement	HEK293 cell membranes	Eurofins Discovery, added: [3H]N-methylspiperone	Ki	316 nM
CCc1c(C(=O)Nc2ccc3c(c2)CN(C2CCC(=O)NC2=O)C3=O)[nH]c2c(CNC(C)=O)cccc12 (stereo not drawn)	LCK/CRBN	degrader, HiBiT, refers to: LCK-HiBiT	KOPTK1	24 h	DC50	7.5 ± 1.6 nM
Cc1nn(-c2cccc(N)c2)c(=O)c2cnc(Nc3ccc(N4CCNCC4)cc3)nc12	Sphingosine kinase 1 (SPHK1, Homo sapiens, UniProt Q9NYA1)	enzyme activity, inhibitor			IC50	> 10000 nM
Cn1cnc2cc(CN3CCC(F)(F)C(COc4ccc(C#N)c(F)c4)C3)ccc21 (stereo not drawn)	DRD4	ligand displacement, radioligand		cell membranes	Ki	40.4 nM
Cc1c[nH]c2nccc(-c3ccc(C(=O)N[C@@H]4c5c(F)cc(C(F)F)cc5C[C@@H]4O)cn3)c12	Non-receptor tyrosine-protein kinase TYK2, JH1 (TYK2, Homo sapiens, UniProt P29597)	binding, competition with immobilised ligand			Kd	99.5 nM
O=C(O)CC12CC3CC(CC(C3)C1)C2	DNA topoisomerase 2-binding protein 1, BRCT7-8 domains (TOPBP1, Homo sapiens, UniProt Q92547)	BRCT7-8 peptide binding, fluorescence polarization		protein 500 nM, added: FITC-BACH1 peptide 20 nM	Kd	600000 ± 50000 nM
COc1ccc(CN2CCC(F)(F)C(COc3nc4ccccc4s3)C2)cc1F (stereo not drawn)	DRD4	ligand displacement, radioligand		cell membranes	Ki	1660 nM
CCc1c(C(=O)Nc2ccc3c(c2)CN(C2CCC(=O)NC2=O)C3=O)[nH]c2c(CN)cccc12 (stereo not drawn)	GSPT1	protein level, degrader, luciferase			DC50	> 10000 nM
CCOC(=O)[C@@](CC)(CCCSCCOCCOCCN)NC(=O)c1ccc(C2CC2)c(Cc2ccc(F)cc2)n1	CNR1	ligand displacement, radioligand		cell membranes	Ki	180 nM
CCc1nc2cc3ccccc3cc2cc1C(=O)N1CCC[C@H]1C(=O)N[C@@H](C/C=C/C[C@H](NC(=O)[C@@H]1CCCN1C(=O)c1cc2cc3ccccc3cc2nc1CC)C(=O)N[C@@H](CCCCN)C(=O)NCCCN)C(=O)N[C@@H](CCCCN)C(=O)NCCCN	(CUG)10 RNA	SPR			Kd	48 nM
Fc1cccc(OCC2CN(Cc3cn4nc(Cl)ccc4n3)CCC2(F)F)c1 (stereo not drawn)	DRD4	ligand displacement, radioligand		cell membranes	Ki	5.5 nM
Cn1ncc2cc(-c3cncc(Cl)c3N3CCC4(CCNC4=O)CC3)ccc21	Cyclin-dependent kinase 1 (CDK1, Homo sapiens, UniProt P06493)	cell-free assay		lysate	Kd	19500 nM
Fc1cccc(OCC2CN(Cc3cn4ccccc4n3)CCC2(F)F)c1 (stereo not drawn)	DRD4	ligand displacement, radioligand		cell membranes	Ki	85 nM
CCN(CC)CC(=O)Nc1cccc(-n2cc(-c3ccc4ccc(-c5cn(-c6cccc(NC(=O)CN(CC)CC)c6)nn5)cc4c3)nn2)c1	RAC-alpha serine/threonine-protein kinase (AKT1, Homo sapiens, UniProt P31749)	enzyme activity, inhibitor			IC50	> 10000 nM
Fc1ccc(OCC2CN(Cc3cn4ccccc4n3)CCC2(F)F)cc1 (stereo not drawn)	DRD4	ligand displacement, radioligand		cell membranes	Ki	73 nM
CCc1c(C(=O)Nc2ccc3c(c2)CN(C2CCC(=O)NC2=O)C3=O)[nH]c2c(NC(C)=O)cccc12 (stereo not drawn)	GSPT1	protein level, degrader, luciferase			DC50	> 10000 nM
Fc1ccc(OCC2CN(Cc3ncc4ccccn34)CCC2(F)F)cc1F (stereo not drawn)	DRD4	ligand displacement, radioligand		cell membranes	Ki	135 nM
CCc1nc2cc3ccccc3cc2cc1C(=O)N1CCC[C@H]1C(=O)N[C@@H](CCC/C=C/CCC[C@H](NC(=O)[C@@H]1CCCN1C(=O)c1cc2cc3ccccc3cc2nc1CC)C(=O)N[C@@H](CCCCN)C(=O)NCCCN)C(=O)N[C@@H](CCCCN)C(=O)NCCCN	(CUG)10 RNA	SPR			Kd	29 nM
Cn1ncc2cc(CN3CCC(F)(F)C(COc4cccc(F)c4)C3)ccc21 (stereo not drawn)	DRD4	ligand displacement, radioligand			Ki	3 nM
CCc1c(C(=O)Nc2ccc3c(c2)CN(C2CCC(=O)NC2=O)C3=O)[nH]c2c(CO)cccc12 (stereo not drawn)	LCK/CRBN	degrader, HiBiT, refers to: LCK-HiBiT	KOPTK1	24 h	DC50	2.7 ± 0.6 nM
Cn1ccc2c(N3CCN(CCCCOc4ccc5c(c4)NC(=O)CC5)CC3)cccc21	Alpha-1A adrenergic receptor (ADRA1A, Homo sapiens, UniProt P35348)	ligand displacement, radioligand			Ki	> 10000 nM
CC[C@H](C(=O)N1CCCC[C@H]1C(=O)O[C@H](CCc1ccc(OC)c(OC)c1)c1ccccc1OCC(=O)NCCCCCCOc1cccc2c1C(=O)N(C1CCC(=O)NC1=O)C2=O)c1cc(OC)c(OC)c(OC)c1 (stereo partly drawn)	Peptidyl-prolyl cis-trans isomerase FKBP1A (FKBP1A, Homo sapiens, UniProt P62942, F37V)	luminescence	HEK293T stably expressing target	6 h	DC50	~100 nM

For quick reference, copied from above:
SMILES	target	test	test system	conditions	endpoint	value
Cc1c[nH]c2nccc(-c3ccc(C(=O)N[C@@H]4c5c(F)cc(C(F)F)cc5C[C@@H]4O)cn3)c12	Non-receptor tyrosine-protein kinase TYK2, JH1 (TYK2, Homo sapiens, UniProt P29597)	binding, competition with immobilised ligand			Kd	99.5 nM
CC[C@H](C(=O)N1CCCC[C@H]1C(=O)O[C@H](CCc1ccc(OC)c(OC)c1)c1ccccc1OCC(=O)NCCCCCCOc1cccc2c1C(=O)N(C1CCC(=O)NC1=O)C2=O)c1cc(OC)c(OC)c(OC)c1 (stereo partly drawn)	Peptidyl-prolyl cis-trans isomerase FKBP1A (FKBP1A, Homo sapiens, UniProt P62942, F37V)	luminescence	HEK293T stably expressing target	6 h	DC50	~100 nM
